# Measured values gathered from unrelated publications.
# Each line is one published result; not all experiments were run side by side. Values joined by “and” are separate records of one study, mostly repeats; a detail may differ. ± gives the spread as reported.
# ABCB1: ATP-dependent translocase ABCB1 (ABCB1, Homo sapiens, UniProt P08183)
# Cytochrome P450 2A13: Cytochrome P450 2A13 (Homo sapiens, UniProt Q16696)
# Nuclear receptor subfamily 1 group I member 3: Nuclear receptor subfamily 1 group I member 3 (Homo sapiens, UniProt Q14994)
SMILES,target,assay,system,conditions,how to read,quantity,result
Cc1ccc2cc(N3CCC4(O)C(=O)c5cc(C)c(C)cc5N=C34)ccc2n1 (stereo not shown),cytochrome P450,inhibitor,,,,IC50,> 100 µM
CC(C)CC(=O)OC[C@H]1O[C@@](C#N)(c2ccc3c(N)ncnn23)[C@H](O)[C@@H]1O,ABCB1,,Caco-2,"90 µM, 2 h",,efflux ratio,9.16
CC(=O)c1cc2ccc3cccc4ccc(c1)c2c34,Cytochrome P450 2A13,"enzyme activity, inhibitor",,"20 min, pH 7.4",,IC50,< 20 µM
CC[C@H]1OC(=O)[C@H](C)[C@@H](O[C@H]2C[C@@](C)(OC)[C@@H](O)[C@H](C)O2)[C@H](C)[C@@H](O[C@@H]2O[C@H](C)C[C@H](N(C)C)[C@H]2O)[C@](C)(O)C[C@@H](C)CN(C)[C@H](C)[C@@H](O)[C@]1(C)O,ABCB1,"transport, inhibitor",,"50 µM, together with: NMN",,inhibition,74%
Clc1cccc(-c2cccc(Cl)c2)c1,Nuclear receptor subfamily 1 group I member 3,"CYP2B6 mRNA induction, activator, qRT-PCR",differentiated HepaRG,24 h,relative to: phenobarbital,EC25,26 µM
O=S(=O)(NCCNC/C=C/c1ccc(Br)cc1)c1cccc2cnccc12,PKA,inhibitor,mouse zygotes,"20 µM, injection, hCG, 48 h post, early embryonic development",,dead embryos,0% and 5%
C=C1CCC2C(C)(CO)C(=O)CCC2(C)C1C=CC1=CCOC1=O (stereo not shown),"UDP-glucuronosyltransferase 2B7 (UGT2B7, Homo sapiens, UniProt P16662)","AZT glucuronidation, inhibitor",human liver microsomes,together with: zidovudine substrate,,Ki,22 µM
CS(=O)(=O)Nc1ncn(-c2cc(F)c(COc3ccc(OS(=O)(=O)F)cc3)c(F)c2)n1,CYP isoforms (human),"enzyme activity, inhibitor",,,,IC50,> 50 µM
C#CCOCc1ccc2ccccc2c1,Cytochrome P450 2A13,"enzyme activity, inhibitor",,together with: 10 µM coumarin,,IC50,30 to 90 µM
Cc1cc2nc3c(=O)[nH]c(=O)nc-3n(C[C@H](O)[C@H](O)[C@H](O)COP(=O)(O)O)c2cc1C,"Iodotyrosine deiodinase (Haliscomenobacter hydrossis, UniProt F4KU78, R38E)","bound cofactor redox, redox titration",,"pH 7.4, 25 °C, anaerobic, no substrate",,midpoint potential,-218 ± 2 mV
c1ccc2cc3c(ccc4ccccc43)cc2c1,Cytochrome P450 2A13,"enzyme activity, inhibitor",,together with: 10 µM coumarin,,IC50,> 200 µM
CCC(CC)COC(=O)[C@H](C)N[P@](=O)(OC[C@H]1O[C@@](C#N)(c2ccc3c(N)ncnn23)[C@H](O)[C@@H]1O)Oc1ccccc1,ABCB1,"transport, inhibitor",,"100 µM, 5 (unit not given), pH 7, together with: NMN",,inhibition,88%
CC[C@H](C)[C@H](NC(=O)[C@H](Cc1ccccc1)NC(=O)[C@H](CCC(=O)O)NC(=O)[C@H](CCCCN)NC(=O)[C@H](C)NC(=O)[C@H](C)NC(=O)[C@H](CCC(N)=O)NC(=O)CNC(=O)[C@H](CCC(=O)O)NC(=O)[C@H](CC(C)C)NC(=O)[C@H](Cc1ccc(O)cc1)NC(=O)[C@H](CO)NC(=O)[C@H](CO)NC(=O)[C@@H](NC(=O)[C@H](CC(=O)O)NC(=O)[C@H](CO)NC(=O)[C@@H](NC(=O)[C@H](Cc1ccccc1)NC(=O)[C@@H](NC(=O)CNC(=O)[C@H](CCC(=O)O)NC(=O)[C@H](C)NC(=O)N(N)Cc1c[nH]cn1)[C@@H](C)O)[C@@H](C)O)C(C)C)C(=O)N[C@@H](C)C(=O)N[C@@H](Cc1c[nH]c2ccccc12)C(=O)N[C@@H](CC(C)C)C(=O)N[C@H](C(=O)N[C@@H](CCCNC(=N)N)C(=O)NCC(=O)N[C@@H](CCCNC(=N)N)C(=O)NCC(=O)O)C(C)C,"Dipeptidyl peptidase 4 (DPP4, Homo sapiens, UniProt P27487)",HPLC-UV,Tris-HCl,"0.1 mM, 4 h, pH 7.4, 37 °C, together with: DPP4 16 nM",,remaining peptide,100%
Oc1cc(Cl)c(-c2ccc(Cl)cc2Cl)c(Cl)c1O,cytochrome P450,GC-MS,"Syrian golden hamster, male, liver microsomes","50 µM, 2 h, 37 °C",,metabolite formation,not detected
C#CCOCCc1ccc2ccccc2c1,Cytochrome P450 2A13,"enzyme activity, inhibitor",,together with: 10 µM coumarin,,IC50,0.4 to 10 µM
NC(=O)c1nc(F)c[nH]c1=O,ABCB1,"transport, inhibitor",,"100 µM, 5 (unit not given), pH 7, together with: NMN",,inhibition,64.4%
C#CCOc1ccccc1-c1ccccc1,Cytochrome P450 2A13,"enzyme activity, inhibitor",,together with: 10 µM coumarin,,IC50,> 80 µM
COc1cc2c(c(OC)c1OC)-c1ccc(OC)c(=O)cc1[C@@H](NC(C)=O)CC2,ABCB1,"transport, inhibitor",,"100 µM, 5 (unit not given), pH 7, together with: NMN",,inhibition,70.5%
C[C@@H]1CC[C@]2(C(=O)O)CC[C@]3(C)C(=CC[C@@H]4[C@@]5(C)CC[C@H](O)[C@@](C)(CO)[C@@H]5CC[C@]43C)[C@@H]2[C@]1(C)O,CYP3A4/5,"midazolam 1'-hydroxylation, mechanism-based inhibitor, probe cocktail incubation",pooled human liver microsomes,"5 µM, 20 min, 30 min pre-incubation, together with: midazolam 1.535 µM",,remaining activity,85.1%
CN(C)C1CCN(C(=O)c2cc3ccccc3n2CC2CCCCC2)CC1,"CYP3A, human",,,"10 µM, 5 (unit not given)",,inhibition,41.7%
Cc1cccc(C)c1OCC(=O)N[C@@H](Cc1ccccc1)[C@@H](O)C[C@H](Cc1ccccc1)NC(=O)[C@H](C(C)C)N1CCCNC1=O,ABCB1,"transport activity, inhibitor",,"100 µM, 5 (unit not given), pH 7",,inhibition,90.8%
COc1cc(Nc2ncc(F)c(Nc3ccc4c(n3)NC(=O)C(C)(C)O4)n2)cc(OC)c1OC,"Thioredoxin reductase 1, cytoplasmic (Txnrd1, Rattus norvegicus, UniProt O89049)",inhibitor,,,,IC50,> 10 µM
CCS(=O)(=O)N1CC(CC#N)(n2cc(-c3ncnc4[nH]ccc34)cn2)C1,ABCB1,"transport, inhibitor",,"50 µM, together with: NMN",,inhibition,22.3%
C=CC1CO1 (stereo not shown),"Cytochrome P450 2E1 (Cyp2e1, Rattus norvegicus, UniProt P05182)","4-nitrophenol oxidation, inhibitor","F344 rat, liver microsomes",binding to substrate-bound enzyme,,Ki,42 µM
CCCCc1nc(Cl)c(CO)n1Cc1ccc(-c2ccccc2-c2nn[nH]n2)cc1,ABCB1,"transport, inhibitor",,"100 µM, 5 (unit not given), pH 7, together with: NMN",,inhibition,43.9%
Clc1ccc(-c2ccccc2Cl)cc1,Nuclear receptor subfamily 1 group I member 3,"CYP2B6 mRNA induction, activator, qRT-PCR",differentiated HepaRG,24 h,relative to: phenobarbital,EC25,9 µM
O=C1CC(c2ccccc2)Oc2ccccc21 (stereo not shown),Cytochrome P450 2A13,"enzyme activity, inhibitor",,together with: 10 µM coumarin,,IC50,0.4 to 10 µM
C[C@@H]1CCN(C(=O)CC#N)C[C@@H]1N(C)c1ncnc2[nH]ccc12,ABCB1,"transport, inhibitor",,"100 µM, 5 (unit not given), pH 7, together with: NMN",,inhibition,36%

# A few entries again:
SMILES,target,assay,system,conditions,how to read,quantity,result
CC[C@H]1OC(=O)[C@H](C)[C@@H](O[C@H]2C[C@@](C)(OC)[C@@H](O)[C@H](C)O2)[C@H](C)[C@@H](O[C@@H]2O[C@H](C)C[C@H](N(C)C)[C@H]2O)[C@](C)(O)C[C@@H](C)CN(C)[C@H](C)[C@@H](O)[C@]1(C)O,ABCB1,"transport, inhibitor",,"50 µM, together with: NMN",,inhibition,74%
CC(=O)c1cc2ccc3cccc4ccc(c1)c2c34,Cytochrome P450 2A13,"enzyme activity, inhibitor",,"20 min, pH 7.4",,IC50,< 20 µM
COc1cc2c(c(OC)c1OC)-c1ccc(OC)c(=O)cc1[C@@H](NC(C)=O)CC2,ABCB1,"transport, inhibitor",,"100 µM, 5 (unit not given), pH 7, together with: NMN",,inhibition,70.5%
C#CCOc1ccccc1-c1ccccc1,Cytochrome P450 2A13,"enzyme activity, inhibitor",,together with: 10 µM coumarin,,IC50,> 80 µM
